Measured values from different studies.
Compare with care: the assays were run in different laboratories. Numbers after ± are the reported error.
Cell line: human PBMC

c1ccc(-c2ccc(CNCCNCc3ccc(-c4ccccn4)cc3)cc2)nc1 — IC50 (IL-1β release, inhibitor, ELISA; 16 h, LPS-stimulated): 0.9 µg/mL
O=C(O)C(CO)NCc1cc(Cl)c(OCc2cccc(-c3ccccc3)c2Br)cc1OCc1cccnc1 (stereo not shown) — EC50 (IFN-γ release, PD-1/PD-L1 blocker, ELISA; together with: PHA + human PD-L1 protein): ≥ 10 nM
CC(=O)C=C(C)[O][Pd][c]1ccccc1C(=O)N=P12CN3CN(CN(C3)C1)C2 — IC50 (cytotoxicity, MTT; 24 h, 1% DMSO): 118 ± 11 µM
CCN(CC)CCN1C(=O)c2ccc3c4cccc5cccc(c6ccc(c2c36)C1=O)c54 — IC50 (cell growth or viability, SRB; 72 h): 204 µM
O=C(N=P12CN3CN(CN(C3)C1)C2)c1cccc[c]1[Pd].O=C(N=P12CN3CN(CN(C3)C1)C2)c1cccc[c]1[Pd]([Br])[Br] — IC50 (cytotoxicity, MTT; 24 h, 1% DMSO): 209 ± 11 µM
O=C1c2ccc3c4cccc5c(N6CCNCC6)ccc(c6ccc(c2c36)C(=O)N1CCN1CCCCC1)c54 — IC50 (cell growth or viability, SRB; 72 h): 292 µM
CC(C)(C(=O)O)C1(O)CCCCC1 — IC50 (cell growth or viability; 72 h): > 300 µM
CCCCOc1nc(N)c2[nH]c(=O)n(CCCN(CCCN3CCOCC3)Cc3cccc(CC(=O)O)c3)c2n1 — IC50 (IL-5 release; 7 d, together with: Der p 1): 1.58 µM
CCN(CC)CCN1C(=O)c2ccc3c4cccc5c(N6CCNCC6)ccc(c6ccc(c2c36)C1=O)c54 — IC50 (cell growth or viability, SRB; 72 h): 213 µM
Cc1[nH]nc2c1N=C(c1ccccc1Cl)c1cnc(N3CCOCC3)cc1N2 — macrophage differentiation (concentration not given, 3 d, together with: rhM-CSF 100 ng/mL): inhibited
CCOC(=O)C1NC(c2ccc[n+](C)c2)C23c4c5c6c7c8c9c(c%10c%11c2c2c4c4c%12c5c5c6c6c8c8c%13c9c9c%10c%10c%11c%11c2c2c4c4c%12c%12c5c5c6c8c6c8c%13c9c9c%10c%10c%11c2c2c4c4c%12c5c6c5c8c9c%10c2c45)C713 (stereo not shown) — decrease in viability (5 µM, 24 h): 6.4%
CN1CCC(N[C@@H]2CCc3[nH]c4c(C(N)=O)ccc(-c5ccccc5Cl)c4c3C2)CC1 — IC50 (cell growth or viability): 0.00299 µM
C=CC(=O)Nc1cccc(Cn2ncc3cnc(Nc4cnn(CCOC)c4)nc32)c1 — STAT5 phosphorylation (Western blot; concentration not given, together with: IL-2): inhibited

For quick reference, copied from above:
O=C(N=P12CN3CN(CN(C3)C1)C2)c1cccc[c]1[Pd].O=C(N=P12CN3CN(CN(C3)C1)C2)c1cccc[c]1[Pd]([Br])[Br] — IC50 (cytotoxicity, MTT; 24 h, 1% DMSO): 209 ± 11 µM
Cc1[nH]nc2c1N=C(c1ccccc1Cl)c1cnc(N3CCOCC3)cc1N2 — macrophage differentiation (concentration not given, 3 d, together with: rhM-CSF 100 ng/mL): inhibited
